Results pooled from the literature.
Numbered parts are unrelated; each lists some results of a single study. Positions count from the first letter of the parent shown.

Set 1 — technique: EMSA with sequencing; molecule type: double-stranded DNA, one strand shown; medium: in vitro; tested at: 10 and 20 nM; reference: negative control set to 0; direction: higher = stronger binding; quantity: normalised bound fraction
Target: Hepatocyte nuclear factor 3-alpha (Foxa1, Mus musculus, UniProt P35582, residues 1-468, full length assumed)
Notes: whole designed probe, mean of two concentrations, ends assumed
Shared flanks, not repeated: GTGAGCGGTGCCCATTGATGGGGAAC … TTTCACTGGGATCGTGGGGAC
Residues (chain): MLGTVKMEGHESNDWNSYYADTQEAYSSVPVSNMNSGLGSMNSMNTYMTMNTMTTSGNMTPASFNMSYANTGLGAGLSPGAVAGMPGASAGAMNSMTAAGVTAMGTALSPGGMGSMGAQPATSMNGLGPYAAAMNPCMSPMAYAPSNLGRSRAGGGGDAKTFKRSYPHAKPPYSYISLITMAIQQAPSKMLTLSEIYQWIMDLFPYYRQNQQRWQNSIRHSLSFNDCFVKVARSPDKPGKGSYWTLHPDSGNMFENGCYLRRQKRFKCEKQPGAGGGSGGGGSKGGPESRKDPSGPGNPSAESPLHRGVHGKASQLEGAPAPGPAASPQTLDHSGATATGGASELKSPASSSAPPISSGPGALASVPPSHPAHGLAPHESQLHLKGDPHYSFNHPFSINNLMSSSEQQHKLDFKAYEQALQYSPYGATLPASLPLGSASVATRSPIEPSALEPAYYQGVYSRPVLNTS
AAGTATCACAATGATCTTCCATTGCAGAGAAGAAGGAGGAGGGAAGAGACAACATGCATATCATGGAAGGATATGCTTGCCCAAAAACCACAGAGTAATCTAGCACTTACGTTTCATTTGTCAGAATTATGTAGCTTCGTCACTTCCAGCTGAAAGATAGCTGTGTGAAAAGGGTTGTGTTATTTTTTGCAAA: -0.00929 ratio
GTAACTACAGTCTCAACCTGCCACATTTTATCATAGGATCAAATCCAGTAATAAAATAATGAGTCTTGGAGGGCAGGCCAGACAGCTCATCTGTGTTTACTGAAAGCATCCAGCATATCTTATGAGACACGTGGTGCCAAACAGATGGGTGGCCGCCCTCCCTCATCTGCCTGCCTGAGGCTTGCCCAACTGC: 0.102 ratio
AAAGGCTAGAGGACATATAATAGAGGCACATGTAAAAATTATAGATAATAGTGTCAACTTTCATAACTTAAAGTGAAAAATTTCTTTTACTATGTTTACTTTGCAGACAGAAAAATAACATTAGTAAGGAATAATTGCTATTTCTTTTTGGTTATTTTTCTCTCATTCATATTAACTTTTCCTAAATTTCAAA: 0.428 ratio
ACATAACAATAAGTGGACACTCCATGTAAGTGAAGGCTTAAAAAAATAAATGAAAGGAAGAAAGAATCTCAATACTATTATCAGATAAGAAAAAGTAATCTAGTACATACAAGTACATTTTATAATGATAAGCTATTTAGTATATAGCACAAGTATGTTGAACATGAGTCTTTAAGTACCAAGTTACAAAAAC: 0.0207 ratio
ATCTCGTAACAAATGGCTTCAGGGTGTTCAGCTGTTCTGCAGCTATGCTGAGGAATTCCTGCCTGTACAAAAGTCACTGTTCCAAGTCCTGTTTGTTTACATTTTACTAATAAACCTCTGCCTCTGTGCTTAGCCTGAGGGGCTGCAGAGCTCCACACCCAGGAGTGGGCCCTCTGGGGATGCTGGGGTTTGA: 0.48 ratio
GTTGACTAGAAATACTGAGTAGCAGGGTAATGAAAAGCATGGTGATCATATTGAAGAAGTGGGAAAAAAAAAGCAAAGGTAGCAACTGCTCTTGTTTACACTGTAAATGTTCTGGCTCACTTGTGAAATATTCACCTTTTTCTTTGCAGTTGATAATATCCATTTTAACACAAAAATAATTTGCTTCTTCCAC: 0.331 ratio
ATGAAATGTTTATTAAGCACCTGTTATTACACACTGGGGGACCCGAAGAGTTATACAACAGCTCATTTATAAAACCTAGCAGGAGGGACACAATGTAATCTTGAGCAAATGACAATAAAAATTTCATTTGAAATAAATGTAATATTTGATAAGTGTTCAAGACATTTAGAGGAGGGAGTCATCGTTGCATCCC: 0.116 ratio
TATGAATTACAAACATTAAAATTGGCTACAACTCCTCTTCAACCAATTACTAACAAGAAGCACCTAAAAGGTCAAAATCATGAAACACCAAAGTAATCTGACATGTGTGCACCTTTTGCTAAATACCAGTCACATAATCCAACATGTATTCATTATATTTTTGACACTAGGAAATAGTTTAAACCTTGGTTTA: 0.0721 ratio

Set 2 — target: CCNE2, cyclin fold, Cln2 fusion (human); technique: yeast growth competition, sequencing; medium: yeast; notes: strong parent motif; reference: not given; direction: higher = stronger binding; quantity: normalised enrichment score
Starting sequence: SCAPER docking peptide (human); SNARRSLNFGGST; partner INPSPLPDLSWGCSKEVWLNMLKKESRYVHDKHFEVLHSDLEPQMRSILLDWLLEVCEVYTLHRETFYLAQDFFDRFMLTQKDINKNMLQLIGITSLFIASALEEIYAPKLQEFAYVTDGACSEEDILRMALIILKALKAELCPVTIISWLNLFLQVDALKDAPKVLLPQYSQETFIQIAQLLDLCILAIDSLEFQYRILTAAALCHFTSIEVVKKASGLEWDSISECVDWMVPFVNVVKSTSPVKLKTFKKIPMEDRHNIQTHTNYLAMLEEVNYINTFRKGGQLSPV
SNARRSLNFYGST [G10Y]: 1.16
SNARRSLNFGGSW [T13W]: 0.735
SNIRRSLNFGGST [A3I]: 1.05
SNARRSLNFGNST [G11N]: 1.4
SNARRHLNFGGST [S6H]: 2.24
SNACRSLNFGGST [R4C]: 0.557
SNARRSLNHGGST [F9H]: -0.219
SNARRSVNFGGST [L7V]: 0.155
SNARRWLNFGGST [S6W]: 2.35
SNARRSLPFGGST [N8P]: 0.62
SNARRSLNFFGST [G10F]: 0.654
SNARRSLCFGGST [N8C]: 0.846
SNARVSLNFGGST [R5V]: 0.208

Set 3 — technique: RNA Bind-n-Seq; molecule type: RNA; medium: in vitro; tested at: 365 nM; reference: no-protein control; direction: higher = stronger binding; quantity: RBNS enrichment (R)
Target: RNA binding protein fox-1 homolog 2, RRM domain, GST-SBP tag (RBFOX2, Homo sapiens, UniProt O43251-10, residues 100-194)
Notes: natural RNA segment, single round, ends assumed
Shared flanks, not repeated: GGGAGUUCUACAGUCCGACGAUC … UGGAAUUCUCGGGUGCCAA
Construct (chain): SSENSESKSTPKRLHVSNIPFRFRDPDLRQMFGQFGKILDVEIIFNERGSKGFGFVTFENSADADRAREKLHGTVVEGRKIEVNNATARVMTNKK
GGGUAUAUAAGGCUUAAGAAUUUGGUCUAUGCCAGGCGUGGUGGCGCAUGCCUUUAAUCCCAGCACUCGGGAGGCAGAGGCAGGCGGAUUUUUGAGUUCAAGGGCAGCCU: 0.851
CACGUCCAAAACAAAAGAUUAUUCCAGAAGAUACCUCAUCCUAUGCCUGAAAGGCUCCACAGCAUGGCGUCCGUCUCCCAGGGUUCUGAUCCGUCUCCUCACGGUGCAAU: 0.409
UAAGGAACUGCCGACUAGGACUGAUGAUGCAUUUUAGCUUUGAGCUUUUGGGGGUUAUUCUACCAACAAACAGUCCAUUGGAAAGAAAACAGUCCCUGGAAUUAACAGAU: 0.379
CACCAGCCUGUUUCUGAGACCACAGAAGAAAACCCCAGGGAUGGAUUUAUGAACAGCUGUGUCUGCUACAUACACGUGCCCCUGUCUGAAGGCCAAGUGAUGGCUUCUGU: 0.356
GGCAUUUAUCACUGUUGGCCGGUGUGAUGAGUAUAGAGUGCCACCCAAGGCACCAGUCACACAAGCUGAUGGGCGUCUUGGCUCUGCCGUCAUGUGGAUGUUAUUGUCGC: 0.391
UAUAUAUGUGUAUAAAUAUAUGUAUAUCCCAGCGGCACUUUAUACUGUUCACUGUACAAAAGCUUACAGUUUUCCACAAGGACUUUAAUAACUAGCUGGGAAAAGACGAU: 0.299
UUCAUCUAUUAAACAGGGUUGGUUUUUCUGGUUGCUAGGGAGACUUAUAGUAAUACAACUUACUAUUCUAGAUUCUUCUUAUCGCUGUGUUUUAUUUGCCAUGUAUCAUC: 0.283
CUGGGUCAAGACUGGUCCAGCUUAGAGUGCAUGCUCUGUUCAUACUCAGCCUAGCUCACAGUGACUUGUGCUUCACUGUCAGGAUGCUCUGUAAAGUUCCUCAUCCCUGU: 0.695
UGUGGCUGAGGACUCAAGGCUGUGAAGACCAGGAGUUCCUGCUCUUGACAUUAUUCCUCCCACUUUGAUCCAGUGUGUGGCUUAUUGUGUUGCCAUGGUAACAGAGAAUC: 0.246
AGAAAACACUCUUCUCAGGAGUAGGAGAGCCUGGAGGGCUGUCAGCACCACAGUGACCUAAGCGGCUCACUUCUGAGCCUCCUCUUCAGUUUCCUGGGGGGGGGGGGGUU: 0.409
CUUCAUUGGCCUAGAUUUUGCGGCAGAUUAGACCUUUUGAAGGUUCUCCACCAUUUUCGUACGUCUCCUGUCCUGGUUUUUUCUUCUGCACUCUUGGAGAGAUUUAGAUG: 2.78
GUACUUUUCUCAGUGACCUCUGGAAUAAAAGAACUGACUUUUGAUAGUUUUAAAAUUAAUCUUUGCAUGAAGGUUGGUUUCGCUUUUUUUCCUUUAAGUUUGUUUUUAAA: 27.6

Single results of other studies
PhoQ, residues 284 288 289 292 302 303 SACGEM  fold induction (PhoP, residues 12 14 15 18 19 NHFRA (Escherichia coli, UniProt P23836); Sort-seq, item: YFP reporter; E. coli; PhoQ-PhoP variant library, added: 10 µM Mg2+; reference: high Mg2+ state, higher = stronger signaling): 5.13

For quick reference, copied from above (set 2):
SNARRWLNFGGST [S6W]: 2.35
SNARRSLPFGGST [N8P]: 0.62
